{"data": "Results of several laboratories", "T1": "DNA aptamer; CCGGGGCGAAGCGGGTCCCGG", "T2": "DNA aptamer 25 nt core; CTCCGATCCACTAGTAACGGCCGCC", "T3": "DNA aptamer; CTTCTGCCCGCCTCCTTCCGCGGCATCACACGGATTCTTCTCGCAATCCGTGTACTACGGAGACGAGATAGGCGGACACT", "T4": "DNA aptamer; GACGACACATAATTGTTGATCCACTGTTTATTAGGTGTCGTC", "T5": "DNA aptamer; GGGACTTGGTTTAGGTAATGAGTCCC", "T6": "DNA aptamer; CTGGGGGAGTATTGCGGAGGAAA", "T7": "DNA aptamer 50 nt truncation; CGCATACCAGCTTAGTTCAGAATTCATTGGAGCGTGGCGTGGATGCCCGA", "T8": "DNA aptamer; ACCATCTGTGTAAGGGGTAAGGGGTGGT", "T9": "DNA aptamer; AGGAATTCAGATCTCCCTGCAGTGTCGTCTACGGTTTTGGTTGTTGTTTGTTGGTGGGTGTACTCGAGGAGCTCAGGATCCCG", "T10": "DNA aptamer; CGGGGTGAAACGGGTCCCG", "T11": "DNA aptamer; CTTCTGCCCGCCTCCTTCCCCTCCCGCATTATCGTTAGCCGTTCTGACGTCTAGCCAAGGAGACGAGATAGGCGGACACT"}
{"Compound": "C[C@@H]1Cc2c(Cl)cc(C(=O)N[C@@H](Cc3ccccc3)C(=O)O)c(O)c2C(=O)O1", "target": "T1, DNA aptamer", "test": "ITC", "setting": "pH 7.4, 23 °C, reverse titration; single-site fit, together with: 10 mM MgCl2", "Kd [µM]": 3.4}
{"Compound": "CC(=O)N[C@H]1C(O)O[C@H](CO)[C@H](O)[C@@H]1O (stereo partly drawn)", "target": "T2, DNA aptamer 25 nt core", "test": "SPR", "Kd [µM]": 0.0583}
{"Compound": "CC(C)=CCC[C@](C)(O[C@@H]1O[C@H](CO)[C@@H](O)[C@H](O)[C@H]1O)[C@H]1CC[C@]2(C)[C@@H]1[C@H](O)C[C@@H]1[C@@]3(C)CC[C@H](O)C(C)(C)[C@@H]3[C@@H](O[C@@H]3O[C@H](CO)[C@@H](O)[C@H](O)[C@H]3O[C@@H]3O[C@@H](C)[C@H](O)[C@@H](O)[C@H]3O)C[C@]12C", "target": "T3, DNA aptamer", "test": "fluorescence of eluted aptamer", "setting": "pH 8.5, room temperature", "Kd [µM]": 2.3}
{"Compound": "Cn1cnc2c(ncn2[C@@H]2O[C@H](CO)[C@@H](O)[C@H]2O)c1=N", "target": "T4, DNA aptamer", "test": "competitor, ThT fluorescence displacement", "setting": "apparent, together with: ThT 16 µM", "Kd [µM]": 1.9}
{"Compound": "NC[C@H]1O[C@H](O[C@H]2[C@H](O)[C@@H](O[C@H]3O[C@H](CO)[C@@H](O)[C@H](N)[C@H]3O)[C@H](N)C[C@@H]2N)[C@H](O)[C@@H](O)[C@@H]1O", "target": "T5, DNA aptamer", "test": "square-wave voltammetry", "setting": "apparent, surface-bound aptamer", "Kd [µM]": 1780}
{"Compound": "Nc1ncnc2c1ncn2[C@@H]1O[C@H](COP(=O)(O)OP(=O)(O)OP(=O)(O)O)[C@@H](O)[C@H]1O", "target": "T6, DNA aptamer", "test": "square wave voltammetry", "setting": "apparent, electrochemical aptamer sensor, assumed saturation", "Kd [µM]": 206}
{"Compound": "NC[C@H]1O[C@H](O[C@H]2[C@H](O)[C@@H](O[C@H]3O[C@H](CO)[C@@H](O)[C@H](N)[C@H]3O)[C@H](N)C[C@@H]2N)[C@H](O)[C@@H](O)[C@@H]1O", "target": "T7, DNA aptamer 50 nt truncation", "test": "MST", "setting": "25 °C, NaCl 100 mM", "Kd [µM]": 400}
{"Compound": "COc1cccc2c1C(=O)c1c(O)c3c(c(O)c1C2=O)C[C@@](O)([C@@H](O)CO)C[C@@H]3O[C@H]1C[C@H](N)[C@H](O)[C@H](C)O1", "target": "T8, DNA aptamer", "test": "SWV", "setting": "pH 7.4, apparent", "Kd [µM]": 2.56}
{"Compound": "O=[N+]([O-])N=C1NCCN1Cc1ccc(Cl)nc1", "target": "T9, DNA aptamer", "test": "differential pulse voltammetry", "setting": "30 min, pH 7.5, Na+ 150 mM, Mg2+ 2 mM", "Kd [µM]": 0.0201}
{"Compound": "C[C@@H]1Cc2ccc(C(=O)N[C@@H](Cc3ccccc3)C(=O)O)c(O)c2C(=O)O1", "target": "T10, DNA aptamer", "test": "ITC", "setting": "pH 7.4, 23 °C, reverse titration; single-site fit, together with: 10 mM MgCl2", "Kd [µM]": 74.1}
{"Compound": "CC(=O)[C@]1(O)Cc2c(O)c3c(c(O)c2[C@@H](O[C@H]2C[C@H](N)[C@H](O)[C@H](C)O2)C1)C(=O)c1ccccc1C3=O", "target": "T8, DNA aptamer", "test": "SWV", "setting": "pH 7.4, apparent", "Kd [µM]": 1.95}
{"Compound": "CC(C)=CCC[C@](C)(O[C@@H]1O[C@H](CO[C@@H]2O[C@H](CO)[C@@H](O)[C@H](O)[C@H]2O)[C@@H](O)[C@H](O)[C@H]1O)[C@H]1CC[C@]2(C)[C@@H]1[C@H](O)C[C@@H]1[C@@]3(C)CC[C@H](O[C@@H]4O[C@H](CO)[C@@H](O)[C@H](O)[C@H]4O[C@@H]4O[C@H](CO)[C@@H](O)[C@H](O)[C@H]4O)C(C)(C)[C@@H]3CC[C@]12C", "target": "T11, DNA aptamer", "test": "fluorescence of eluted aptamer", "setting": "pH 8.5, room temperature", "Kd [µM]": 4.9}
